Results pooled from the literature.
Protocols differ between the studies behind these lines. Numbers after ± are the reported error.

assay | test system | setting | how to read | measurement | result | SMILES
 | monkey plasma | 1 µM, 2.00 h, pH 7.4, 37 °C |  | remaining compound | 83.4% | N#Cc1ccc(Nc2nc(N)cc(Oc3c(F)cc(-c4ccc(C#N)cc4)cc3F)n2)cc1
 | mouse liver microsomes | 60 min |  | remaining parent | 36.2 area % | CC(C)OC(=O)c1sc(Nc2ncccn2)nc1-c1cnccn1
LC-MS | human liver microsomes | 10 µM, 20 min, pH 7.4, with: NADPH | relative to: time 0 | remaining parent compound | 64% | O=C1CC2(CCCC2)CC(=O)N1CCCCN1CCN(c2ncccn2)CC1
12G5 competition, SUP-T1 cells | human plasma | 20 µM, 8 h, 37 °C |  | remaining activity | 7 ± 1% | CC(C)C[C@H](NC(=O)[C@@H](N)C(C)C)C(=O)N[C@@H](CCCNC(=N)N)C(=O)N[C@@H](Cc1c[nH]c2ccccc12)C(=O)N[C@@H](CO)C(=O)N[C@@H](CCCNC(=N)N)C(=O)N[C@@H](CCCCN)C(=O)N[C@@H](CC(C)C)C(=O)N1CCC[C@H]1C(=O)N[C@@H](CS)C(=O)N[C@H](C(=O)N[C@@H](CO)C(N)=O)C(C)C
LC-MS | human liver microsomes | 10 µM, 60 min, pH 7.4, with: NADPH | relative to: time 0 | remaining parent compound | 98% | Cc1cc(C(=O)NC(C)(C)COc2cccc3c2C(N)=NS(=O)(=O)N3)cc(C)n1
 | mouse liver microsomes | 1 µM, 30 min, pH 7.4 |  | remaining compound | 0.4% | CCOc1ccc2ccc(=O)oc2c1
12G5 competition, SUP-T1 cells | human plasma | concentration not given, 8 h |  | remaining activity | 2 ± 0.3% | CSCC[C@H](N)C(=O)N[C@@H](CC(C)C)C(=O)N[C@@H](CCCNC(=N)N)C(=O)N[C@@H](Cc1c[nH]c2ccccc12)C(=O)N[C@@H](CO)C(=O)N[C@@H](CCCNC(=N)N)C(=O)N[C@@H](CCCCN)C(=O)N[C@@H](CC(C)C)C(=O)N1CCC[C@H]1C(=O)N[C@@H](CS)C(=O)N[C@H](C(=O)N[C@@H](CO)C(N)=O)C(C)C
HPLC | ammonium bicarbonate | 180 µM, 7 days, pH 9.0, 25 °C, deamidation stability |  | remaining peptide | 95 ± 0.5% | CC(C)C[C@@H]1NC(=O)CNC(=O)[C@H](CC(N)=O)NC(=O)[C@H](CCCNC(=N)N)NC(=O)[C@H]([C@@H](C)O)NC(=O)[C@@H]2CSSC[C@@H]3NC(=O)[C@H]([C@@H](C)O)NC(=O)CNC(=O)CNC(=O)[C@H](C(C)C)NC(=O)[C@@H]4CSSC[C@H](NC(=O)[C@H]([C@@H](C)O)NC(=O)[C@H](CSSC[C@H](NC(=O)[C@H](C(C)C)NC(=O)[C@@H]5CCCN5C1=O)C(=O)NCC(=O)N[C@@H](CCC(=O)O)C(=O)N[C@@H]([C@@H](C)O)C(=O)N4)NC(=O)CNC(=O)[C@@H]1CCCN1C(=O)[C@H]([C@@H](C)O)NC(=O)[C@H](CC(N)=O)NC3=O)C(=O)N[C@@H](CO)C(=O)N[C@@H](Cc1c[nH]c3ccccc13)C(=O)N1CCC[C@H]1C(=O)N[C@@H](C(C)C)C(=O)N2

A few entries again:
assay | test system | setting | how to read | measurement | result | SMILES
12G5 competition, SUP-T1 cells | human plasma | concentration not given, 8 h |  | remaining activity | 2 ± 0.3% | CSCC[C@H](N)C(=O)N[C@@H](CC(C)C)C(=O)N[C@@H](CCCNC(=N)N)C(=O)N[C@@H](Cc1c[nH]c2ccccc12)C(=O)N[C@@H](CO)C(=O)N[C@@H](CCCNC(=N)N)C(=O)N[C@@H](CCCCN)C(=O)N[C@@H](CC(C)C)C(=O)N1CCC[C@H]1C(=O)N[C@@H](CS)C(=O)N[C@H](C(=O)N[C@@H](CO)C(N)=O)C(C)C
